Assay results collected from several papers.
Parts stem from different laboratories: compare values within a part only. Substitutions count along the parent as printed.

Study 1
Target: DBP, bZIP domain (human)
Method: DHFR protein complementation
Sample: yeast
Notes: single substitutions, most at no-binding floor
Relative to: wild-type JUN-FOS pair
Reading: higher = stronger binding
Starting sequence: JUN, bZIP domain (human); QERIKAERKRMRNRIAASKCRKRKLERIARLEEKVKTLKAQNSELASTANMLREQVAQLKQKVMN; partner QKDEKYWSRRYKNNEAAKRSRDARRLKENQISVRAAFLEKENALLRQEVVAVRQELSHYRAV
With `N42L` the binding fitness was -1.41 natural log.
The binding fitness of `I28Q` is reported as -1.47 natural log.
`T37F` has a binding fitness of -1.51 natural log.
For `L52M`, the binding fitness was -1.41 natural log.
`I28M` gave a binding fitness of -1.39 natural log.
With `K34T` the binding fitness was -1.3 natural log.
With `S47P` the binding fitness was -1.41 natural log.
`T37I` gave a binding fitness of -1.6 natural log.
`K34H` gave a binding fitness of -1.33 natural log.
`L38R` has a binding fitness of -1.43 natural log.
With `Q55R` the binding fitness was -1.37 natural log.
`E44F` has a binding fitness of -1.51 natural log.
The binding fitness of `L31A` is reported as -1.47 natural log.
With `L45G` the binding fitness was -1.49 natural log.
`E54I` gave a binding fitness of -1.31 natural log.

Study 2
Target: Fragile X messenger ribonucleoprotein 1, C-terminal low-complexity region (Fmr1, Mus musculus, UniProt P35922)
Method: RNA Bind-n-Seq
Form: RNA
Sample: in vitro
Tested at: 200 nM
Notes: whole 134-nt RNA, ends assumed
Together with: 150 mM LiCl
Relative to: input library
Reading: higher = stronger binding
All molecules: 7-deaza-guanosine replaces G
With `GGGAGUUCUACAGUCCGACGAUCUCAAGUCCUGUGCUACACAUCGUAUGUACCGAAUCGGGAGGGAGGGAAAAAGGGAAAGUAUUAUGUUACGCCGUUCGGAUCUGCACUUCCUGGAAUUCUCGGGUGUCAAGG` the log2 enrichment was -0.599.
For `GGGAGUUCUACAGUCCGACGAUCCACAGACAACCCGCACCCACACAGACACAGAGGGAAGGGGUUGGGAUGGGGACAGGGUGCACAGCAGGGCGGGGUAGGACCCCAGCCCCUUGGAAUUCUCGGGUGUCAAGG`, the log2 enrichment was -0.975.
With `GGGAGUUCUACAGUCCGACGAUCUCAAGUCCUGUGCUACACAUCGUAUGUACCGAAUCGGUGGUUUUUUUGGUUUGGAAAGUAUUAUGUUACGCCGUUCGGAUCUGCACUUCCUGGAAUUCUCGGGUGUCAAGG` the log2 enrichment was -1.36.
With `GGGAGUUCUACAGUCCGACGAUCUCCUGUGCUACACAUCGUAUGUACCGAAUCGGGAAAAAAAGGGAAAAAAAGGGUUUGGGAAAGUAUUAUGUUACGCCGUUCGGAUCUGCAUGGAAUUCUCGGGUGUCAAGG` the log2 enrichment was -1.9.
For `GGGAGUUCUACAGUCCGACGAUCAUGUUCUUGAAUACUUAGCAAACAUACCAGCAUCCCAAAGUCACCAAGAUAAACCCUCCUACUCCAACAUCACAUGAUCUUCUAAUUCUAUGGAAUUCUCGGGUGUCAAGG`, the log2 enrichment was 1.22.
The log2 enrichment of `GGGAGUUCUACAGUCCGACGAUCUGUCUUUCCUGGUGACUAGGAUGUCGUCGGAGGAGGACAAGAGCGUGGAGCAGCCGCAGCCGCCGCCACCACCCCCCGAGGAGCCUGGAGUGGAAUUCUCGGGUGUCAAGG` is reported as -0.13.
`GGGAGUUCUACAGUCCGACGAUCCUGUGCUACACAUCGUAUGUACCGAAUCGGGGCCCCCCCGGGCCCCCCCGGGCCCCCCCGGGAAAGUAUUAUGUUACGCCGUUCGGAUCUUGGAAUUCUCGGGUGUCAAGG` gave a log2 enrichment of -0.543.
`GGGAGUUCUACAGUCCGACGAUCCCUCAAGUCCUGUGCUACACAUCGUAUGUACCGAAUCGGGGAGGGAGGGAGGGAAAGUAUUAUGUUACGCCGUUCGGAUCUGCACUUCCAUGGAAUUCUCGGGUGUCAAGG` gave a log2 enrichment of -1.48.

Study 3
Target: Histone acetyltransferase KAT6A, winged helix 2, GST fusion (KAT6A, Homo sapiens, UniProt Q92794, residues 85-181)
Method: protein binding microarray
Form: double-stranded DNA, one strand shown
Sample: in vitro
Tested at: not given
Notes: 8-mer, flanks averaged, mean of 2 arrays, mostly near background
Relative to: not given
Reading: higher = stronger binding
Residues (chain): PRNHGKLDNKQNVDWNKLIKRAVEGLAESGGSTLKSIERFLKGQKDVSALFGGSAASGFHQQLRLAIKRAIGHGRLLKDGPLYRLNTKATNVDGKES
`CTGGACGC` gave an E-score of 0.104.
With `CCGACCGA` the E-score was 0.0228.
With `CAACTCGC` the E-score was 0.11.
For `ACTCAGAG`, the E-score was 0.219.
`AACGGCTC` gave an E-score of -0.0365.
`CAGGAATG` has an E-score of -0.0439.
For `AAGTGGAG`, the E-score was 0.0427.
`CGGGTCAC` has an E-score of 0.044.
The E-score of `CTAGGTTA` is reported as -0.156.
For `CGGCCTCA`, the E-score was 0.244.
`CCCGTCTA` has an E-score of 0.0372.
`GGAGCGAA` gave an E-score of 0.147.
`ATTGAGTC` has an E-score of -0.0863.
The E-score of `GCTGGTAA` is reported as -0.0679.
The E-score of `CATCAGTC` is reported as -0.222.
For `CGTTTCGA`, the E-score was 0.0448.
`CCGTCCGC` gave an E-score of -0.0444.
With `ATGACCCC` the E-score was -0.0553.
`AACCTTGG` has an E-score of -0.126.
`GAGAATAC` has an E-score of 0.0202.
`TAAATTAA` has an E-score of 0.0988.
The E-score of `CAGCTAAG` is reported as 0.119.

Study 4
Target: ABI1, truncated, D143A, DHFR fusion (Arabidopsis thaliana)
Method: DHFR PCA, deep sequencing
Sample: yeast
Notes: methotrexate growth selection, single substitutions
Together with: (+)-ABA 1.4 µM
Relative to: wild-type fitted maximum
Reading: higher = stronger binding
Starting sequence: PYL1, truncated, DHFR fusion (Arabidopsis thaliana); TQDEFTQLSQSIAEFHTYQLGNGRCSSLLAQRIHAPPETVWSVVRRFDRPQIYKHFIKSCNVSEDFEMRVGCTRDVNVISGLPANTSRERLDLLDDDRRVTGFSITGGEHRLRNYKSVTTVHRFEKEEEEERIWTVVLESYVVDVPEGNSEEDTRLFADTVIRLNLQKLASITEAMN
Under “relative binding score”, `L28E` is recorded as 3.16%.
For `V100K`, “relative binding score” read 0.596%.
For `A84G`, “relative binding score” read 51.2%.
`D153G` — result for “relative binding score”: 1.44%.
For `S80W`, “relative binding score” read 33.2%.
`N85L` — result for “relative binding score”: 64.7%.
`M68G` — result for “relative binding score”: 11%.
Under “relative binding score”, `P37K` is recorded as -1.94%.
Under “relative binding score”, `P146W` is recorded as -10.7%.
`P83H`: “relative binding score” 0.445%.
`L91D`: “relative binding score” -2.36%.
Under “relative binding score”, `A170G` is recorded as 8.51%.
Under “relative binding score”, `D97T` is recorded as 59.7%.
For `T1H`, “relative binding score” read 59.2%.
Under “relative binding score”, `D65F` is recorded as 11.6%.
Under “relative binding score”, `L169N` is recorded as -31.5%.
`E67Y` — result for “relative binding score”: 23.3%.
For `E125I`, “relative binding score” read 66.9%.
For `L156E`, “relative binding score” read 12.3%.
Under “relative binding score”, `R46V` is recorded as -20.7%.
`T154N` — result for “relative binding score”: -40%.

Study 5
Target: CCNA2, cyclin fold, Cln2 fusion (human)
Method: yeast growth competition, sequencing
Sample: yeast
Notes: strong parent motif
Relative to: not given
Reading: higher = stronger binding
Starting sequence: SCAPER docking peptide (human); SNARRSLNFGGST; partner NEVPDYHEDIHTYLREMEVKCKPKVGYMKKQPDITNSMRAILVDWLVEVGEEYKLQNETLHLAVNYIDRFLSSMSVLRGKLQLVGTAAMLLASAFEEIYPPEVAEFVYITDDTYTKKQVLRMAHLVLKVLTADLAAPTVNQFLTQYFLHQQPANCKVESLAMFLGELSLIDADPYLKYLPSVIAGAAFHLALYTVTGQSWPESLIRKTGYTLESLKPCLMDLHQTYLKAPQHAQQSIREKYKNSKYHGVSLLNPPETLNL
For `SNARRSSNFGGST [L7S]`, “normalised enrichment score” read 1.03.
For `SGARRSLNFGGST [N2G]`, “normalised enrichment score” read 6.82.
Under “normalised enrichment score”, `SNARRSLNFVGST [G10V]` is recorded as 4.81.
`SNARRSANFGGST [L7A]` — result for “normalised enrichment score”: 0.868.
`TNARRSLNFGGST [S1T]` — result for “normalised enrichment score”: 6.57.
`SNLRRSLNFGGST [A3L]`: “normalised enrichment score” 1.66.
Under “normalised enrichment score”, `SNARRSLNFGGSC [T13C]` is recorded as 6.58.
For `SNARRSLNFGGFT [S12F]`, “normalised enrichment score” read 5.9.
For `SNARRSLNFGGSW [T13W]`, “normalised enrichment score” read 5.7.
`SNARRSLNFGTST [G11T]` — result for “normalised enrichment score”: 6.82.
`SNAIRSLNFGGST [R4I]` — result for “normalised enrichment score”: 3.78.
`SNARRSLNFGGSV [T13V]` — result for “normalised enrichment score”: 6.25.
`SNAKRSLNFGGST [R4K]`: “normalised enrichment score” 5.49.
`SNARRQLNFGGST [S6Q]`: “normalised enrichment score” 6.61.
`SRARRSLNFGGST [N2R]`: “normalised enrichment score” 6.56.
For `SNARRSLNFPGST [G10P]`, “normalised enrichment score” read 4.86.
`SNAYRSLNFGGST [R4Y]` — result for “normalised enrichment score”: 3.41.
For `SNATRSLNFGGST [R4T]`, “normalised enrichment score” read 1.9.
For `SNARRSLNDGGST [F9D]`, “normalised enrichment score” read 0.251.

Excerpt of the above (study 3):
`CCGTCCGC` gave an E-score of -0.0444.
For `CGGCCTCA`, the E-score was 0.244.
`CGGGTCAC` has an E-score of 0.044.
`GGAGCGAA` gave an E-score of 0.147.
For `ACTCAGAG`, the E-score was 0.219.
For `CGTTTCGA`, the E-score was 0.0448.
`GAGAATAC` has an E-score of 0.0202.
`CCCGTCTA` has an E-score of 0.0372.
With `CCGACCGA` the E-score was 0.0228.
With `ATGACCCC` the E-score was -0.0553.
`ATTGAGTC` has an E-score of -0.0863.
